Measurements collected from several papers.
Numbered parts are unrelated; each lists some results of a single study. Positions count from the first letter of the parent shown.

Series 1
Target: Interferon regulatory factor 7, full length, phosphomimetic (IRF7, Homo sapiens, UniProt Q92985, residues 1-503, S101K/S471D/S472D/S475D/S476D/S477D/S483D/S484D/S487D)
Chain of UniProt Q92985 (whole entry, unmodified, looked up): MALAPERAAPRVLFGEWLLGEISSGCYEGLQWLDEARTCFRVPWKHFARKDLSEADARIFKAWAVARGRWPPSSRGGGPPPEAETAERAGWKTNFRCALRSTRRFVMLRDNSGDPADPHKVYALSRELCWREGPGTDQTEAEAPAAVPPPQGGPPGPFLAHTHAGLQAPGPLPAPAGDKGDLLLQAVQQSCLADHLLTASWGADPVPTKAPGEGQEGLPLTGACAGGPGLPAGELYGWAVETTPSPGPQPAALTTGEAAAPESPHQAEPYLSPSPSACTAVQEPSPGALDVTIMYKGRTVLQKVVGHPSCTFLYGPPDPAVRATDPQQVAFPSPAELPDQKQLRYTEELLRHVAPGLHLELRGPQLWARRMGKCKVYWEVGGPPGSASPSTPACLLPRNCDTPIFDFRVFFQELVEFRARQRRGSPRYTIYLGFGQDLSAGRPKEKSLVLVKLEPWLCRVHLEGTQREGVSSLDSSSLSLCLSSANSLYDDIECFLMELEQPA
Method: protein-binding microarray
Molecule type: double-stranded DNA, one strand shown
Medium: in vitro
Tested at: 250 nM
Notes: 60-bp whole probe
Added: salmon DNA 0.4 mg/ml
Relative to: random background probes
Reading: higher = stronger binding
All sequences stand within: GCCTAGCAC … GTCTTGATTCGCTTGACGCTGCTG
Oligonucleotide | log fluorescence
TTAGGTTTCCTTTTGCTTTAGTGCTAG | 8.27 z-score
GAGGATTTCAGTTCCGAGACGTGCTAG | 0.353 z-score
TTATGTATCCTACTGCTTTAGTGCTAG | 0.158 z-score
TTAGATTCCAGTTCCGATTAGTGCTAG | 3.64 z-score
TTAGGTGTCGGACTGGGTTAGTGCTAG | -0.478 z-score
TTAGATTTCGGGACTAGATTAGTGCTA | 0.635 z-score
TCATCTTCTCCTCTAGGACTGTGCTAG | 0.858 z-score
TCATATTAAAATTTCATACTGTGCTAG | 0.744 z-score
TCATAACTCATTTTCGTACTGTGCTAG | 1.26 z-score
CACGGTTCCGGTTTCGGGACGTGCTAG | 7.4 z-score
GACGGTTTCCTTCTGCTGACGTGCTAG | 3.09 z-score
GACGGTATTGACACTGGGGACGTGCTA | -0.34 z-score
GACGATATCAGTATCGAGTCGTGCTAG | 0.75 z-score
TCATTTTTCTATATGCAACTGTGCTAG | 2.22 z-score
TTAGGACTGGGGACCGGGTTAGTGCTA | -0.0284 z-score
TTGGGACTGGACTATCGGTTAGTGCTA | -0.759 z-score
TTAGGACTGCTTTTCCTCTAGTGCTAG | 1.31 z-score

Series 2
Target: Histone acetyltransferase KAT6A, both winged helices, GST fusion (KAT6A, Homo sapiens, UniProt Q92794, residues 1-181)
Method: protein binding microarray
Molecule type: double-stranded DNA, one strand shown
Medium: in vitro
Tested at: not given
Notes: 8-mer, flanks averaged, mean of 2 arrays, mostly near background
Relative to: not given
Reading: higher = stronger binding
Residues (chain): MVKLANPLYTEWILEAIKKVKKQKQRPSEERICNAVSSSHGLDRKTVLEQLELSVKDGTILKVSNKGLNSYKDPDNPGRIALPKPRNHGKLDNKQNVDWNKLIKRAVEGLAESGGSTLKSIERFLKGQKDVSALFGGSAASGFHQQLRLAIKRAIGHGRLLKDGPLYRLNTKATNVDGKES
Oligonucleotide | E-score
GGTCGGTA | 0.0691
AGGATTTA | -0.0885
CCGCATAG | 0.222
ACTTGTCC | 0.103
CTGTCTCC | 0.00583
ACTCATCC | -0.0822
AATAGAAA | 0.0232
AGCACAAA | -0.0826
AAGTTCTC | -0.171
AACTCAGG | -0.222
GCTGAAAA | 0.0202
ATTTAAGC | -0.0105
GTGTCTAA | -0.0794
TGATCCAA | -0.13
AGCGGCGG | 0.351
ACGATAAA | -0.00264
CCCTGTAG | -0.0334
AGTACCCG | 0.122
AAGGCTGA | -0.144
ATCGACTA | -0.197
CCCCGACC | 0.0261
TCAGGCCA | -0.0444
AAGTCATC | -0.0811
CCCACCCC | 0.0568

Series 3
Target: CRIPT, C-terminal peptide
Method: DHFR complementation, deep sequencing
Medium: yeast
Notes: single substitutions, model-inferred values
Relative to: wild type
Reading: higher = weaker binding
Starting sequence: ERBIN, PDZ domain 1 (human); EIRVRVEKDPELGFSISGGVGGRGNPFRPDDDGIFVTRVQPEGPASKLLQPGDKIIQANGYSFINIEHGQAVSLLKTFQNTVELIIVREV; partner TKNYKQTSV
Change | binding free energy change [kcal/mol]
N59I | 0.892
A45W | 1.3
H68E | 1.16
S62E | -0.00668
T37C | 0.222
Q70Y | 0.109
N25A | 0.776
P44K | 0.33
S17F | 1.4
A71F | 0.915
G43W | 1.17
N25V | 0.651
Y61G | 0.36
G22L | 0.0198
G21L | 0.235
R3T | -0.275

Series 4
Target: RNA binding protein fox-1 homolog 2, RRM domain, GST-SBP tag (RBFOX2, Homo sapiens, UniProt O43251-10, residues 100-194)
Method: RNA Bind-n-Seq
Molecule type: RNA
Medium: in vitro
Tested at: 365 nM
Notes: natural RNA segment, single round, ends assumed
Relative to: no-protein control
Reading: higher = stronger binding
Residues (chain): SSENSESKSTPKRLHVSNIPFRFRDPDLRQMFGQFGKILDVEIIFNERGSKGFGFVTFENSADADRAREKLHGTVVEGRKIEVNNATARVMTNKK
Oligonucleotide | RBNS enrichment (R)
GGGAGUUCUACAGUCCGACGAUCGGACCUGGGGAAGGGAUGCUGAGACACAAGCAGGUCUUCUUAGCUCCAUGUUGGGAGAUGUUGGGGUAAGCAAUGGAGGCUAUAUCCUCAAGAGCUGUCACAGACAAGUGUGGAAUUCUCGGGUGCCAA | 0.392
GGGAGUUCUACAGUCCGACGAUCUACAGAAUGAAUGGAGACUGGGUUCCUGAGAAAAGCUUUGAACACACGGGACUACAGAUGGUGCCCUCUCAGGAGUUUUGGGGGAGAAUAGGAGUUACCCAUCAGGUUUCUGGAAUUCUCGGGUGCCAA | 2.12
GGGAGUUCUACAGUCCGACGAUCGUCUGCACAAGGAGUGCCUUCUCAUGCUGAUUUGCAGACGGGGCACCCCUGUGGAGGGGCUGCUGUGGGCCCUGACCUCCAAGCUCCUGCCUCACCGUCUGCCUUGCUCCUGGAAUUCUCGGGUGCCAA | 0.577
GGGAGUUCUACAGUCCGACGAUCUGGGAGAUACAAUUCCAAGUUCUCGCUUCCUCCUUUGGGCAUCUCUUCUGCCUCCCAAUCAAGGAAGCUCCAUGCUCAGGCUCUCAGCUCUCGGGCCAGUGCUCUGCUCUUGGAAUUCUCGGGUGCCAA | 0.162
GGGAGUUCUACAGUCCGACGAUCGCGCCAGCCGUGGCACAACGCGGAGGGCCGGCUGCGGUACGGGCUGCGGCCGGCGAACCCCACGGAGGAGGGCCUGGCCAGCCUGCACAGCGUGCUGUUCCGCAAGCAGCUGGAAUUCUCGGGUGCCAA | 0.445
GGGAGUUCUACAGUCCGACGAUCAAAGAGGAAAUCUUAUUUAACCCUUUGUGUCCUAGAUUGACUUACACACAUAGCCUAGAGCUCAGUUUUAGUUUAACAUUGUGAAAAUAUUAAAAGAAUCUUGUAACUUUUGGAAUUCUCGGGUGCCAA | 0.583
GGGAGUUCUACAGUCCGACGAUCGUUCAAAGCAUACUUUUCAUGAUUUUUUUAUUACAAAUGUAAAAUGUAUAAAGUCACAUGUACUGCCAUACUACUUCUUUGUAUAUAAAGAUGUUUAUAUCUUUGGAAGUUGGAAUUCUCGGGUGCCAA | 0.561
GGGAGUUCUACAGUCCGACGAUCAGGCUCAAGAUGCAUUCCUUGUGUAGGUCGGAGAGAGCACUUCUAAUGUUAAGUGGGGUACAGAUCAGCUGCCCCCCCACGUAGCCUGGACAUCGUCUUAUCCCCAUAAUUGGAAUUCUCGGGUGCCAA | 2.33
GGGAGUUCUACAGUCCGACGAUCGACUUAAAAAAUCAAAUCCCCCGACAUACGUUUUUUUUAAUCUGUGCCAAAAAUGUGUUUUCAGAGGAAAUCUUAUUUUCAUAUUCAGACUUUGUAUUGCCCACUCAUUUUGGAAUUCUCGGGUGCCAA | 0.624
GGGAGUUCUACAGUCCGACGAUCUACCUAGCCAGUUGUUUCUGAGGACCAGGCAACUUUUGAACUCCUGUCUCUGUGAGAAUGUAUACUUUAUGCUCUCUGAAAUGUAUGACACCCAGCUUUAAAACAAACAAUGGAAUUCUCGGGUGCCAA | 0.841
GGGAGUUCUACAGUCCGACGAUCUUGUAUCACAAAUCAGUGUUAAAACACCAGAACUUUAGCCAAAAUAAAUGUCUUACAUUACAAAGGUUUGUUUUUUUGUCCUUCUUAUCACAGUUGGUAUUCUUUUACGUUGGAAUUCUCGGGUGCCAA | 0.674
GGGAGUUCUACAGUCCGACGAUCAAGCUGGACCUUUUCCCUUGCUGUACCAUAUUCAGCAUUUGAUUUCCAUGGGCCCCACCAUUUAUGUGUAGAAUUUGAAAUGGUUGUCACCUCUCUCUGAGGACAGAGCUUGGAAUUCUCGGGUGCCAA | 0.341

Series 5
Target: Fragile X messenger ribonucleoprotein 1, C-terminal low-complexity region (Fmr1, Mus musculus, UniProt P35922)
Method: RNA Bind-n-Seq
Molecule type: RNA
Medium: in vitro
Tested at: 200 nM
Notes: whole 134-nt RNA, ends assumed
Added: 150 mM LiCl
Relative to: input library
Reading: higher = stronger binding
Library: 7-deaza-guanosine replaces G
Oligonucleotide | log2 enrichment
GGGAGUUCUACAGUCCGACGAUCUCAAGUCCUGUGCUACACAUCGUAUGUACCGAAUCGGGGUUUGGGUUUGGUUUGGAAAGUAUUAUGUUACGCCGUUCGGAUCUGCACUUCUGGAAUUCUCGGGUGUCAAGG | -0.652
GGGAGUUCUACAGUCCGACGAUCUGCUGCGGAAGGGCUCUGGCACUCUGUGUGAGGCCUUGCUGAUGGUGCAGGCCUUCCACGCCAACAUCAUCUUCCCCAACAAGCAAGAGCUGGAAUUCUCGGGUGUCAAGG | -1.49
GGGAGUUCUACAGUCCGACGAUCUGGGAAGUGGAUUUUGUUUAUUUUUUUAGCUCAUUUCCAGGGGUGGGAAUUUUUUUUUAAUAUGUGUCAUGAAUAAAGUUGUUUUUGAAAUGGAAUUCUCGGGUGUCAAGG | -0.211
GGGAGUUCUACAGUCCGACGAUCACCAUGCAGGUGGGCACCUUUGGGAAGUGGGGCAAGGGGGGGAUAGGGAGGGGGGUAACACUUUGGGAACAGGUGGUCCCAGGUCGUUUCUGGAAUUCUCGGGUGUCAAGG | 1.61
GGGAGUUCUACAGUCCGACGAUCUCAAGUCCUGUGCUACACAUCGUAUGUACCGAAUCGGGUGGGAAAGGGUUUGGGAAAGUAUUAUGUUACGCCGUUCGGAUCUGCACUUCCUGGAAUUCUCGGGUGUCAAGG | -2.37
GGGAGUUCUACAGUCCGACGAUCGUCCUGUGCUACACAUCGUAUGUACCGAAUCGGGGUUUUGGGGUUUUGGGGUUUUGGGAAAGUAUUAUGUUACGCCGUUCGGAUCUGCACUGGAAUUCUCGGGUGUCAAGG | -0.337
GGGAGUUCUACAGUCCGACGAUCAGUCCUGUGCUACACAUCGUAUGUACCGAAUCGGGAGGGUUUUUUUGGGAAAAAGGGAAAGUAUUAUGUUACGCCGUUCGGAUCUGCACUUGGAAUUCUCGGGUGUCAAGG | -1.46
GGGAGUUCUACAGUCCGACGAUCUCCUGUGCUACACAUCGUAUGUACCGAAUCAAAUUUUUUUAAACCCCCCCAAAUUUAAAAAAGUAUUAUGUUACGCCGUUCGGAUCUGCAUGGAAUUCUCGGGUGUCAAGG | 1.17
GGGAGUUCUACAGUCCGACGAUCUUUCAGGGGAGCUCUUUGCUCAGGCCCCGGUGGAUCAGUUUCCUGGCACAGCUGUGGAGAGUGUGACGGAUUCCAGCAGGUACUUCGUGAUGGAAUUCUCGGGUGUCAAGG | -1.97
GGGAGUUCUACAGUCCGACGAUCGUCCUGUGCUACACAUCGUAUGUACCGAAUCGGGAAAAAGGGGAAAAAGGGGAAAAAGGAAAGUAUUAUGUUACGCCGUUCGGAUCUGCAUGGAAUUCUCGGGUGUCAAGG | 0.701
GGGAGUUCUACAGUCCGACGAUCAGUCCUGUGCUACACAUCGUAUGUACCGAAUCAAAUUUAAACCCCCAAACCCCCAAAAAAGUAUUAUGUUACGCCGUUCGGAUCUGCACUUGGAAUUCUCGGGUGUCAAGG | 1.03

Repeated from above (series 2):
Oligonucleotide | E-score
TGATCCAA | -0.13
AGCGGCGG | 0.351
ACGATAAA | -0.00264
CCCTGTAG | -0.0334
AGTACCCG | 0.122
